Experimental data from different studies.
Protocols differ between the studies behind these lines. “And” joins repeats or separate records; there may be more than shown. ± gives the spread as reported.
GLP1R: Glucagon-like peptide 1 receptor (GLP1R, Homo sapiens, UniProt P43220)
UniProt Q8WUM0, sequence (whole entry, looked up): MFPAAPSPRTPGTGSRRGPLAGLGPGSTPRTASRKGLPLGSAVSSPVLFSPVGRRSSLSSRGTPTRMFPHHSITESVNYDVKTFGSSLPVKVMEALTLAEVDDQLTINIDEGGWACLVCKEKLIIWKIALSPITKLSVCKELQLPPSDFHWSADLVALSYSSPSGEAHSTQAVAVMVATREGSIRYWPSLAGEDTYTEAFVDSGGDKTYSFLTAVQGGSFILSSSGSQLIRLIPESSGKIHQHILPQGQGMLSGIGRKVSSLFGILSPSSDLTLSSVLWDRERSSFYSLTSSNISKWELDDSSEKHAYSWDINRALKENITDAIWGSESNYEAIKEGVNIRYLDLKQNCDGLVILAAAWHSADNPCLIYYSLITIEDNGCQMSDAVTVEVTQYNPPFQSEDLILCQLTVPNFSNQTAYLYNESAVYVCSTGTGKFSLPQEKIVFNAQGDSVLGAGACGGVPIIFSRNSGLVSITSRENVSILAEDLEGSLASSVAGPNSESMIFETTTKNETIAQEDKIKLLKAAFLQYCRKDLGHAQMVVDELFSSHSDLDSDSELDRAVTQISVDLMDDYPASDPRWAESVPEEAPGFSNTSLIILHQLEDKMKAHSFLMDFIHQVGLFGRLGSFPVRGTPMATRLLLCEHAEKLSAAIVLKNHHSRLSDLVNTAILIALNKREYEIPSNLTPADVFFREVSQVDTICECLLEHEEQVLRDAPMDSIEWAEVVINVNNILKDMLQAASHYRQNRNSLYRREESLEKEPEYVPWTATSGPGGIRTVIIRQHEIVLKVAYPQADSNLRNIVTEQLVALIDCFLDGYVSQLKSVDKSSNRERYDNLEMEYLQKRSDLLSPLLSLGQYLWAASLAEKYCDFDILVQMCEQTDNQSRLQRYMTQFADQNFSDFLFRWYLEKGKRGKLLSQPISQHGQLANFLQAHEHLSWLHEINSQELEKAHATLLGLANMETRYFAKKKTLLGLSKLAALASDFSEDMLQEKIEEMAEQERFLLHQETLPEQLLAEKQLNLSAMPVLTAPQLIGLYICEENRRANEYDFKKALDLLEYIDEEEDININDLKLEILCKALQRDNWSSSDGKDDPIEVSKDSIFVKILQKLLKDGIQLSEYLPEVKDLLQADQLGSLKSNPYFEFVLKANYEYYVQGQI
UniProt Q16774, sequence (whole entry, unmodified, looked up): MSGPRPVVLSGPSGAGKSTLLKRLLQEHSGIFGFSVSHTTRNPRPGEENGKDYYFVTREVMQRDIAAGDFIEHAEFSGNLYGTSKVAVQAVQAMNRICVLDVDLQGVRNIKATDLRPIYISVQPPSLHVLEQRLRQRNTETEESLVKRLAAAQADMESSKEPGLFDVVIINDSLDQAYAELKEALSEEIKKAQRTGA
UniProt P51575, sequence (whole entry, unmodified, looked up): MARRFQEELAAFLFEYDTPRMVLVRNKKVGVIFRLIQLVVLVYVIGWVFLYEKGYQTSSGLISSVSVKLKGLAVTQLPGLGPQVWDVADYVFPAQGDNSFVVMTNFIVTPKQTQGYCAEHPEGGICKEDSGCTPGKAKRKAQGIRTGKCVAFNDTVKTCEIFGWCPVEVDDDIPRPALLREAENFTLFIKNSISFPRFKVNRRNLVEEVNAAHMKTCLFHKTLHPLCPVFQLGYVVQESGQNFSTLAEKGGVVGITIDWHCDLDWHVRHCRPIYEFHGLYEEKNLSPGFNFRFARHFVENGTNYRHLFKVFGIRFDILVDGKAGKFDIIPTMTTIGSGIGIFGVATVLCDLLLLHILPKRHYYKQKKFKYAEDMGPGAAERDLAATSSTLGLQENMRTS
UniProt Q9UPE1, sequence (whole entry, looked up): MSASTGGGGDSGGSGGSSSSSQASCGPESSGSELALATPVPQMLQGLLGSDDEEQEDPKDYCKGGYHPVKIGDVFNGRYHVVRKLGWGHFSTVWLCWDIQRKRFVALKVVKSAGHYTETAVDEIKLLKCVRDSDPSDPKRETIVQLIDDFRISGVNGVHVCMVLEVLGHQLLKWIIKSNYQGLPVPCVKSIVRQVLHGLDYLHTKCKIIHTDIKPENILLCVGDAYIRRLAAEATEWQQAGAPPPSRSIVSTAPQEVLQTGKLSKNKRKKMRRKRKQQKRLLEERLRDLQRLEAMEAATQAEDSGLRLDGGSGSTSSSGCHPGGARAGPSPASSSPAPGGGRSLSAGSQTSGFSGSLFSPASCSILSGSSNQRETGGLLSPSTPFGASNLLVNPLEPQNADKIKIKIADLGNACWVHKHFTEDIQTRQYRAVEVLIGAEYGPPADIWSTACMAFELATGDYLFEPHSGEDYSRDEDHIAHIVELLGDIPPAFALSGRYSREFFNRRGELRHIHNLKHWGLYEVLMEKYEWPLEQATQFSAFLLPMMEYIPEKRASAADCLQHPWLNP
UniProt Q9NY57, sequence (whole entry, looked up): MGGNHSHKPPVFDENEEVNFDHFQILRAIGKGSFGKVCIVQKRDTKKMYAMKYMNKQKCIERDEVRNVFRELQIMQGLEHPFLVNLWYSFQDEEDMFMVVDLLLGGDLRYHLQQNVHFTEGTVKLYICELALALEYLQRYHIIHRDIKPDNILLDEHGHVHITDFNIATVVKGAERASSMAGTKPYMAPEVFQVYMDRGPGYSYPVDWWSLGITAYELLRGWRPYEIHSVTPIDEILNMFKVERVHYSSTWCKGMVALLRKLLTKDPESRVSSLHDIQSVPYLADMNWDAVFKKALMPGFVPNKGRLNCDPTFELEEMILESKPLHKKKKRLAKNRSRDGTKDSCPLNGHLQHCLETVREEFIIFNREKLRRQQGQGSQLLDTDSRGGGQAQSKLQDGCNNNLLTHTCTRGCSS
UniProt Q13263, sequence (whole entry, looked up): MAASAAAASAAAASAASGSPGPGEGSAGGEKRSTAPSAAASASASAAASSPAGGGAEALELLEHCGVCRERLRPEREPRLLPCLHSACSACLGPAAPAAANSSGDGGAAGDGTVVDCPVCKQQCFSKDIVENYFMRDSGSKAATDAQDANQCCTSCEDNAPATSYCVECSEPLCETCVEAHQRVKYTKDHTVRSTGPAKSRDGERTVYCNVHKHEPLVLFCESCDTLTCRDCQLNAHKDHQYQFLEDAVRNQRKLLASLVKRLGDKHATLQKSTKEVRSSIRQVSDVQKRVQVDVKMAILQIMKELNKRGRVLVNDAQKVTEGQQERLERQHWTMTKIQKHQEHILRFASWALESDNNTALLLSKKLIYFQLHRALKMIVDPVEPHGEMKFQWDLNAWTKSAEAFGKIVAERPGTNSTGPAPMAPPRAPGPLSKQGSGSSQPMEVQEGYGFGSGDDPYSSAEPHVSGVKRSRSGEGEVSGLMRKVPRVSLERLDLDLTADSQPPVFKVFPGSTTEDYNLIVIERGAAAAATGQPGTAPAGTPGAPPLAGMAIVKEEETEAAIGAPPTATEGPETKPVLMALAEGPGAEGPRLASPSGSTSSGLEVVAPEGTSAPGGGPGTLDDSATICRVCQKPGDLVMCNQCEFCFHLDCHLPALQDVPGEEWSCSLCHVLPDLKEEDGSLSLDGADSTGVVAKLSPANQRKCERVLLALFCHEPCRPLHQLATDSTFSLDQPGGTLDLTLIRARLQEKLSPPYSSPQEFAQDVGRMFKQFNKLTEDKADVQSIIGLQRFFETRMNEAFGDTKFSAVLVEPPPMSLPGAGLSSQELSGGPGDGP
UniProt Q8TBX8, sequence (whole entry, looked up): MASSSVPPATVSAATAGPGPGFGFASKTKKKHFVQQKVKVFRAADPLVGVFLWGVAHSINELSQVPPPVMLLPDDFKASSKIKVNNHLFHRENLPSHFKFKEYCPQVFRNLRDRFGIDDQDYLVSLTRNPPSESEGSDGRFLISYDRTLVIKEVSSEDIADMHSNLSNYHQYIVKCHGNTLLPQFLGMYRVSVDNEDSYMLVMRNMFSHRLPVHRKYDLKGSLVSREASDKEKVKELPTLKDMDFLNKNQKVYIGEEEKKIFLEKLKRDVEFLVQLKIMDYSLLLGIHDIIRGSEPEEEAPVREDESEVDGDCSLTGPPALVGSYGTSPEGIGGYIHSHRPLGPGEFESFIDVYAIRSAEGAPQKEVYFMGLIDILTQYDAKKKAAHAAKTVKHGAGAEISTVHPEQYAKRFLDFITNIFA
UniProt P52564, sequence (whole entry, looked up): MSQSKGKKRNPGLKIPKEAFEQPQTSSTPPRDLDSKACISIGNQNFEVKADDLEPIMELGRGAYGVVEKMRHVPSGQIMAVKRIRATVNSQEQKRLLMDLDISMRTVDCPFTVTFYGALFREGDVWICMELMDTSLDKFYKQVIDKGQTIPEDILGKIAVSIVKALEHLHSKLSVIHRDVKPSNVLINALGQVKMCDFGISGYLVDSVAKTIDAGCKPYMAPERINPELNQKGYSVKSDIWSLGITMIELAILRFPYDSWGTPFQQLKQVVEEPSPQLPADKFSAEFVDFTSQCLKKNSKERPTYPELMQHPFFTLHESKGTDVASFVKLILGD
UniProt Q86X55, sequence (whole entry, looked up): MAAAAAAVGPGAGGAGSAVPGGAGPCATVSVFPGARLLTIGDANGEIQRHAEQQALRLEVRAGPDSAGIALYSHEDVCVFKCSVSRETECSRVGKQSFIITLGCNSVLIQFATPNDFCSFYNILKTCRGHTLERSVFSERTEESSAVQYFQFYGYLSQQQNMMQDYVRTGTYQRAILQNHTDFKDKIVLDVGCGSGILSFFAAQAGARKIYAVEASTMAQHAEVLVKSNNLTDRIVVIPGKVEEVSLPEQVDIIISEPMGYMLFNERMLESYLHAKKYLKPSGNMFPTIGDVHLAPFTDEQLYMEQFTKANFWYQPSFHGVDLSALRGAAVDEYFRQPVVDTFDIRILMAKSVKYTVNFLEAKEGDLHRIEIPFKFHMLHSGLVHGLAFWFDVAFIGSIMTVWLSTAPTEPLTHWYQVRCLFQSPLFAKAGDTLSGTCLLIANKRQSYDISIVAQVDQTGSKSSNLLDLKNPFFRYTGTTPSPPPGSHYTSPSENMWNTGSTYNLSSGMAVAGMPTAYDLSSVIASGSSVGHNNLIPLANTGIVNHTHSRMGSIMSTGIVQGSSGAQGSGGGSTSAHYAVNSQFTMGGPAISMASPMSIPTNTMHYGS

`CCO[C@@H](Cc1ccc(OCCn2c(C)ccc2-c2ccc(SC)cc2)cc1)C(=O)O` gave an Emax of 109% (Peroxisome proliferator-activated receptor alpha (Ppara, Mus musculus, UniProt P23204); receptor activation, agonist; species mouse; relative to: internal control agonist).
`CC[C@H](C)[C@H](NC(=O)[C@H](Cc1ccccc1)NC(=O)[C@H](CCC(=O)O)NC(=O)[C@H](CCCNC(=N)N)NC(=O)[C@H](C)NC(=O)[C@H](C)NC(=O)[C@H](CCC(N)=O)NC(=O)[C@H](CCC(=O)O)NC(=O)[C@H](CCC(=O)O)NC(=O)[C@H](CC(C)C)NC(=O)[C@H](Cc1ccc(O)cc1)NC(=O)[C@H](CO)NC(=O)[C@H](CO)NC(=O)[C@H](CCCCNc1c(NCCCCCN(O)C(=O)CCC(=O)NCCCCCN(O)C(=O)CCC(=O)NCCCCCN(O)C(C)=O)c(=O)c1=O)NC(=O)[C@H](CC(=O)O)NC(=O)[C@H](CO)NC(=O)[C@@H](NC(=O)[C@H](Cc1ccccc1)NC(=O)[C@@H](NC(=O)CNC(=O)[C@H](CCC(=O)O)NC(=O)[C@H](C)NC(=O)CCc1cnc[nH]1)[C@@H](C)O)[C@@H](C)O)C(=O)N[C@@H](C)C(=O)N[C@@H](Cc1c[nH]c2ccccc12)C(=O)N[C@@H](CC(C)C)C(=O)N[C@H](C(=O)N[C@@H](CCCNC(=N)N)C(=O)NCC(=O)N[C@@H](CCCNC(=N)N)C(=O)N[C@@H](CCCCNC(=O)COCCOCCNC(=O)COCCOCCNC(=O)CC[C@H](NC(=O)CCCCCCCCCCCCCCCCC(=O)O)C(=O)O)C(=O)NCC(=O)NCC(=O)N[C@@H](CO)C(=O)N[C@@H](CCCCNc1c(NCCCCCN(O)C(=O)CCC(=O)NCCCCCN(O)C(=O)CCC(=O)NCCCCCN(O)C(C)=O)c(=O)c1=O)C(=O)O)C(C)C` — result for “fold potency loss”: 9.6 (GLP1R; agonist, CRE luciferase reporter; BHK cells; metal-free DFO conjugate, together with: 1% HSA; relative to: parent peptide).
`Cc1ncsc1-c1ccc([C@H](C)NC(=O)[C@@H]2C[C@@H](O)CN2C(=O)[C@@H](NC(=O)CCCCCC(=O)N2CCC3(CC2)CCN(c2cncc(Nc4ncc(Cl)c(-c5cccc(-c6ccccc6)c5)n4)c2)C3=O)C(C)(C)C)cc1` gave a Dmax of 91% (Phosphatidylinositol 5-phosphate 4-kinase type-2 gamma (PIP4K2C, Homo sapiens, UniProt Q8TBX8); degrader, immunoblot; MOLT-4; 1 µM, 6 h).
For `Cc1cc(Nc2cc(N3CCN(C)CC3)nc(Sc3ccc(NC(=O)C4CC4)cc3)n2)[nH]n1`, the remaining activity was 101% (SRSF protein kinase 3 (SRPK3, Homo sapiens, UniProt Q9UPE1); kinase activity, KinaseProfiler; 0.03 µM, species human; relative to: control).
`CN(C)C(=O)C(CCN1CCC(O)(c2ccc(Cl)cc2)CC1)(c1ccccc1)c1ccccc1`: “effective gating valence” 1.53 ± 0.38 elementary charges (Calcium-activated potassium channel subunit alpha-1, with LRRC26 γ1 subunit (KCNMA1, Homo sapiens, UniProt Q12791); BK current, inside-out patch clamp; excised membrane patch; 30 µM, γ1 coexpressed, individual fits, together with: nominally 0 Ca2+ cytosolic).
Under receptor activation, `Cn1c2c(c(=O)n(C)c1=O)C(C(F)(F)F)(C(F)(F)F)N=C(c1ccc(Cl)cc1)N2` is recorded as “inhibited” (GLP1R; antagonist, CRE-luciferase; HEK-293T; 25 µM, 12 h, together with: agonist 100 nM).
The Hill coefficient of `CC1(C)C(/C=C/C=C2/N(CCCc3ccccc3)c3ccc4ccccc4c3C2(C)C)=[N+](CCCc2ccccc2)c2ccc3ccccc3c21.[Br-]` is reported as 3.12 (Histone-arginine methyltransferase CARM1 (CARM1, Homo sapiens, UniProt Q86X55); inhibitor, filter binding; together with: histone H3.3 substrate).
`CC[C@H](C)[C@H](NC(=O)[C@H](Cc1ccccc1)NC(=O)[C@H](CCC(=O)O)NC(=O)[C@H](CCCNC(=N)N)NC(=O)[C@H](C)NC(=O)[C@H](C)NC(=O)[C@H](CCC(N)=O)NC(=O)[C@H](CCC(=O)O)NC(=O)[C@H](CCC(=O)O)NC(=O)[C@H](CC(C)C)NC(=O)[C@H](Cc1ccc(O)cc1)NC(=O)[C@H](CO)NC(=O)[C@H](CO)NC(=O)[C@H](CCCCNc1c(NCCCCCN(O)C(=O)CCC(=O)NCCCCCN(O)C(=O)CCC(=O)NCCCCCN(O)C(C)=O)c(=O)c1=O)NC(=O)[C@H](CC(=O)O)NC(=O)[C@H](CO)NC(=O)[C@@H](NC(=O)[C@H](Cc1ccccc1)NC(=O)[C@@H](NC(=O)CNC(=O)[C@H](CCC(=O)O)NC(=O)[C@H](C)NC(=O)CCc1cnc[nH]1)[C@@H](C)O)[C@@H](C)O)C(=O)N[C@@H](C)C(=O)N[C@@H](Cc1c[nH]c2ccccc12)C(=O)N[C@@H](CC(C)C)C(=O)N[C@H](C(=O)N[C@@H](CCCCNc1c(NCCCCCN(O)C(=O)CCC(=O)NCCCCCN(O)C(=O)CCC(=O)NCCCCCN(O)C(C)=O)c(=O)c1=O)C(=O)NCC(=O)N[C@@H](CCCNC(=N)N)C(=O)N[C@@H](CCCCNC(=O)COCCOCCNC(=O)COCCOCCNC(=O)CC[C@H](NC(=O)CCCCCCCCCCCCCCCCC(=O)O)C(=O)O)C(=O)O)C(C)C` — result for “fold potency loss”: 32.1 (GLP1R; agonist, CRE luciferase reporter; BHK cells; Zr-loaded DFO conjugate, together with: 1% HSA; relative to: parent peptide).
`O=S(=O)([O-])[O-].[Mn+2]` has a kcat of 0.3 s⁻¹ (alternative ancestral dye-decolorizing peroxidase; peroxidase activity, substrate, steady-state kinetics; 25 °C, pH 3 ABTS, 4 others).
`c1coc(-c2n[nH]cc2-c2ccnc3ccccc23)c1` — result for “log2 fold change”: -0.01 (Serine/threonine-protein kinase SSN3 (SSN3, Candida albicans, UniProt Q5AHK2); kinase binding, MIB/MS competition; Candida albicans lysate; 1 µM; relative to: DMSO, negative = stronger binding).
`O=c1nc(SCc2cc(F)cc(C(F)(F)F)c2)nc(SCc2ccc3sccc3c2)[nH]1` gave a linear DNA of 12.1% (DNA topoisomerase 2-alpha (TOP2A, Homo sapiens, UniProt P11388); DNA cleavage; 7.8 µM, together with: etoposide 50 µM).
`Cc1cc(-c2ccnc3[nH]cc(F)c23)cc(F)c1[C@@]1(O)[C@H](C)CN(C(=O)CN)C[C@@H]1C`: “probe labelling inhibition” -2.7% (RAC-alpha serine/threonine-protein kinase (AKT1, Homo sapiens, UniProt P31749); ATP/ADP probe binding, KiNativ; HEK293T lysate; 0.1 µM, ATP loop peptide).
`Nc1ncnc2c1ncn2[C@@H]1O[C@H](COP(=O)(O)CP(=O)(O)OP(=O)(O)O)[C@@H](O)[C@H]1O` gave a calcium influx of 91.1% and 100% and 94.7% (P2X purinoceptor 1 (P2RX1, Homo sapiens, UniProt P51575, L218T); calcium influx; 1 µM; relative to: ionomycin response).
`O=S(=O)(O)SSS(=O)(=O)O` has a ΔTm of 5.69 °C (uncharacterized protein (Pelagibacter ubique, UniProt Q4FMK2); differential scanning fluorimetry; Candidatus Pelagibacter ubique; concentration not given; higher = stronger binding).
`C=CC(=O)N1CCC(COCC(=O)N2CCN(c3nc(-c4cnc(N)nc4C(F)F)nc(N4CCOC[C@@H]4C)n3)CC2)CC1` gave a remaining binding of 100% (Serine/threonine-protein kinase 32B (STK32B, Homo sapiens, UniProt Q9NY57); KINOMEscan; 1 µM).
For `CC[C@@H]1[C@H](F)C(=O)N[C@@H]1COc1nccc2cc(C(N)=O)c(OC)cc12`, the inhibition was 4.7% (Dual specificity mitogen-activated protein kinase kinase 6 (MAP2K6, Homo sapiens, UniProt P52564); ATP-site probe binding, ActivX profiling; THP-1 cell lysate; 0.04 mM, Lys2 site).
For `O=C(COP(=O)(O)O)[C@@H](O)[C@H](O)[C@H](O)COP(=O)(O)O`, “thermal stability ratio” read 0.6 and 0.778 and 0.389 (Nuclear pore complex protein Nup133 (NUP133, Homo sapiens, UniProt Q8WUM0); thermal proteome profiling, measured: NUP133; HepG2 cell lysate; concentration not given, 57 over 37 °C; relative to: compound over control).
For `Nc1nc2c(ncn2[C@@H]2O[C@H](COP(=O)(O)O)[C@@H](O)[C@H]2O)c(=O)[nH]1`, the reaction rate was 0.031 s⁻¹ and 0.0452 s⁻¹ and -0.478 s⁻¹ (GUK1 (Homo sapiens, UniProt Q16774, R44A); enzyme activity, NADH-coupled; 125 µM).
With `O=C(O)c1ccc(Nc2ncc3c(n2)-c2ccc(Cl)cc2C(c2c(F)cccc2F)=NC3)cc1` the remaining activity was 95% (ALK(h); kinase activity; 1 µM).
`CC1CCCN(C(=O)c2cc3ncccn3n2)C1` (centres unmarked) — result for “log fold enrichment”: -0.0035 (Transcription intermediary factor 1-beta, PHD-bromodomain (TRIM28, Homo sapiens, UniProt Q13263); binding, affinity selection mass spectrometry; relative to: other proteins in batch).

A few entries again:
`CN(C)C(=O)C(CCN1CCC(O)(c2ccc(Cl)cc2)CC1)(c1ccccc1)c1ccccc1`: “effective gating valence” 1.53 ± 0.38 elementary charges (Calcium-activated potassium channel subunit alpha-1, with LRRC26 γ1 subunit (KCNMA1, Homo sapiens, UniProt Q12791); BK current, inside-out patch clamp; excised membrane patch; 30 µM, γ1 coexpressed, individual fits, together with: nominally 0 Ca2+ cytosolic).
Under receptor activation, `Cn1c2c(c(=O)n(C)c1=O)C(C(F)(F)F)(C(F)(F)F)N=C(c1ccc(Cl)cc1)N2` is recorded as “inhibited” (GLP1R; antagonist, CRE-luciferase; HEK-293T; 25 µM, 12 h, together with: agonist 100 nM).
The Hill coefficient of `CC1(C)C(/C=C/C=C2/N(CCCc3ccccc3)c3ccc4ccccc4c3C2(C)C)=[N+](CCCc2ccccc2)c2ccc3ccccc3c21.[Br-]` is reported as 3.12 (Histone-arginine methyltransferase CARM1 (CARM1, Homo sapiens, UniProt Q86X55); inhibitor, filter binding; together with: histone H3.3 substrate).
